Results gathered from unrelated publications.
A part holds a random share of what one study measured.

Series 1
Target: Replicase polyprotein 1ab, main protease (rep, Severe acute respiratory syndrome coronavirus 2, UniProt P0DTD1)
Effect on: enzyme activity
Action: inhibitor
Concentration: 20 µM
Notes: primary screen
| Structure (SMILES) | inhibition [%] |
| --- | --- |
| NC(=O)c1cc[n+](CC2=C(C(=O)O)N3C(=O)[C@@H](NC(=O)Cc4cccs4)[C@H]3SC2)cc1 | 34.1 |
| O=C(O)c1ccccc1-c1c2cc(I)c(=O)c(I)c-2oc2c(I)c(O)c(I)cc12 | 50.5 |
| COC(=O)C(N)CS (stereo not shown) | 33 |

Series 2
Cell line: HEK-293T/ACE2
Concentration: 10 µM
Time: 16 h
Relative to: vehicle
| SMILES | viability [%] |
| --- | --- |
| CO/N=C(\C(=O)N[C@@H]1C(=O)N2C(C(=O)O)=C(COC(C)=O)CS[C@H]12)c1csc(N)n1 | 99.3 |
| CO[C@H]1/C=C/O[C@@]2(C)Oc3c(C)c(O)c4c(O)c(c(/C=N/N5CCN(C)CC5)c(O)c4c3C2=O)NC(=O)/C(C)=C\C=C\[C@H](C)[C@H](O)[C@@H](C)[C@@H](O)[C@@H](C)[C@H](OC(C)=O)[C@@H]1C | 100 |
| CC(C)Cc1ccc(C(C)C(=O)O)cc1 (stereo not shown) | 98.4 |

Series 3
Target: Interferon regulatory factor 7, full length, phosphomimetic (IRF7, Homo sapiens, UniProt Q92985, residues 1-503, S101K/S471D/S472D/S475D/S476D/S477D/S483D/S484D/S487D)
Technique: protein-binding microarray
Molecule type: double-stranded DNA, one strand shown
Matrix: in vitro
Concentration: 250 nM
Notes: 60-bp whole probe
With: salmon DNA 0.4 mg/ml
Relative to: random background probes
Direction: higher = stronger binding
Constant ends, left off below: GCCTAGCAC … GTCTTGATTCGCTTGACGCTGCTG
Target sequence (chain): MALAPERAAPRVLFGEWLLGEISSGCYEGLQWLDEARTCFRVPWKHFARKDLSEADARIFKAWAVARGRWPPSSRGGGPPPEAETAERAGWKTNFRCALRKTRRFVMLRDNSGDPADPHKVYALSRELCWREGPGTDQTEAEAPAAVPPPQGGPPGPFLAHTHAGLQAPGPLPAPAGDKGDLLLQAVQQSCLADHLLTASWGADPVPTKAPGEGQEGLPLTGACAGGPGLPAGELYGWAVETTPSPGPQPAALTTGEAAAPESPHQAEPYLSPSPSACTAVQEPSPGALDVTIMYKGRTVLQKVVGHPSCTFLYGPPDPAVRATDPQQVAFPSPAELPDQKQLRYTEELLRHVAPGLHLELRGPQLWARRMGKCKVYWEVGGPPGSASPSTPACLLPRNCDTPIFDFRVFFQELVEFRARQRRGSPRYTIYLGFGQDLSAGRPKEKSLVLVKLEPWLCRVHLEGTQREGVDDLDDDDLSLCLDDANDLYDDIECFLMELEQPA
| Oligonucleotide | log fluorescence |
| --- | --- |
| CTCTGGTTCTTGCTTGGTGTCGTGCTA | -0.106 z-score |
| GACGGTCTCCTACTGCAGACGTGCTAG | -0.00324 z-score |
| TTAGGTTTCTGGTATCGGTTAGTGCTA | 3.14 z-score |
| TTAGTACTGGGGTATCGATTAGTGCTA | 0.263 z-score |
| TTTCAGCTGTTTTTCTCACCGTGCTAG | 0.253 z-score |
| GTAGGTTTCGGGACTGGGTTAGTGCTA | 3.23 z-score |
| GACGGTTTCGACTATCGGGACGTGCTA | 5.25 z-score |
| TTAGGTATCGACTTTCGATTAGTGCTA | 3.42 z-score |

Series 4
Target: Sal-like protein 4, full length isoform B (SALL4, Homo sapiens, UniProt Q9UJQ4-2, residues 1-616)
Technique: universal PBM
Molecule type: double-stranded DNA, one strand shown
Matrix: in vitro
Concentration: not given
Notes: 8-mer, flanks averaged, mean of replicates
Direction: higher = stronger binding
| Oligonucleotide | E-score |
| --- | --- |
| TCTTAGAA | 0.196 |
| GACCAATA | 0.247 |
| CTTTTCTC | 0.0711 |
| ACTCCATC | 0.0713 |
| ATCGAAGC | -0.0834 |
| AAATGAGG | 0.106 |
| GTTTGCGA | 0.0783 |
| AACAGGCG | -0.177 |

Series 5
Target: Centromere-binding protein 1, full length, N-terminal tag (CBF1, Saccharomyces cerevisiae, UniProt P17106, residues 1-351)
Chain of UniProt P17106 (whole entry, looked up): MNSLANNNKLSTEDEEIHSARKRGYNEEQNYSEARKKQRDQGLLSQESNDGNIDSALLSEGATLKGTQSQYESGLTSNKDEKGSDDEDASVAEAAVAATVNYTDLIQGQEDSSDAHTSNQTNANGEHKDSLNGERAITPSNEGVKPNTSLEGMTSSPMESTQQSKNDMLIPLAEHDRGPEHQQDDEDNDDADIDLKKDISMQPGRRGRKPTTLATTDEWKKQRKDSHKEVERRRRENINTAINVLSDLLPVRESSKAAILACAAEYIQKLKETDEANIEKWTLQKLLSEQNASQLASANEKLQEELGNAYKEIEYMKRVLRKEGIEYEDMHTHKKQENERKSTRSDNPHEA
Technique: protein-binding microarray
Molecule type: double-stranded DNA, one strand shown
Matrix: in vitro
Concentration: 0.8 µM
Notes: whole 60-bp probe, no competitor
Direction: higher = stronger binding
Constant ends, left off below: … GTCTTGATTCGCTTGACGCTGCTG
| Oligonucleotide | fluorescence intensity [a.u.] |
| --- | --- |
| CTAGTGACTAGTAGTCATGTTACTACTATATTATTC | 764 |
| CTAAACATAACGATAAACGTGGTATAGTTTTCGTTC | 619 |
| CTAAACCGCCTTTGTCACACCATCCGGTAAGTATTC | 601 |
| GAACTAAAAAGTTCCCACGTTCTCTTGTACGACTAG | 546 |
| GAAATTTCACTTAAGCACGCAAATGCTATTTTTTAG | 505 |
| GAATTTATGAGCTGTCCCGTGAGCGTAGCGACGTAG | 654 |
| CTATCCTCTTCTTTTCACATGAGAAATGATATATTC | 626 |
| GAATGGCACATACACCACCACATTCAATCATATTAG | 505 |

Series 6
Target: Replicase polyprotein 1ab, polymerase (rep, Severe acute respiratory syndrome coronavirus 2, UniProt P0DTD1)
Effect on: enzyme activity
Action: inhibitor
Concentration: 20 µM
| Structure (SMILES) | inhibition |
| --- | --- |
| O=C(O)c1cc2cccc([N+](=O)[O-])c2[nH]1 | 0.24% |
| O=C1c2ccccc2C(=O)C1c1ccc(Br)cc1 | -10.1% |
| COc1ccc(-c2ccc3cc(C(=O)O)ccc3c2)cc1[C@]12C[C@H]3C[C@H](C[C@H](C3)C1)C2 | 29.6% |
| CC(C)[C@H](N)C(=O)OCCOCn1cnc2c(=O)nc(N)[nH]c21 | -1.97% |
| N=C(N)c1ccc(N2CCN(C3CCN(CC(=O)O)CC3)CC2)cc1 | -2.58% |
| CCOc1nc2cccc(C(=O)O)c2n1Cc1ccc(-c2ccccc2-c2noc(=O)[nH]2)cc1 | -1.68% |
| CCOC(=O)N[C@@H]1CC[C@@H]2[C@@H](C1)C[C@H]1C(=O)O[C@H](C)[C@H]1[C@H]2/C=C/c1ccc(-c2cccc(F)c2)cn1 | 11.5% |
| Cc1cc(Nc2cc(CN3CCOCC3)c3nc(C)c(Cc4ccc(Cl)cc4F)n3n2)n[nH]1 | -4.79% |
| CCCn1c(=O)c2[nH]c(C34C[C@@H]5CC3C[C@@H](C5)C4)nc2n(CCC)c1=O | 1.52% |
| O=C1c2cccc(O)c2C(=O)c2c(O)cc(CO)cc21 | 4.25% |
| CCc1c2c(nc3ccc(O)cc13)-c1cc3c(c(=O)n1C2)COC(=O)[C@]3(O)CC | 3.96% |
| COc1ccc(-c2nc3cc(C4=NNC(=O)CC4C)ccc3[nH]2)cc1 (stereo not shown) | 5.16% |
| CCN(CC)Cc1cc(Nc2ccnc3cc(Cl)ccc23)ccc1O | -5.28% |
| CS(=O)(=O)Nc1ccc2oc3c(OC(F)F)ccc(C(=O)Nc4c(Cl)cncc4Cl)c3c2c1 | 6.68% |
| CN(C(=O)CCCOc1ccc2[nH]c(=O)ccc2c1)C1CCCCC1 | 3.54% |
| COc1cc(C(=S)N2CCOCC2)ccc1O | -12% |
| Oc1noc2c1CCNC2 | -1.14% |
| CCOC(=O)CNC(=O)[C@@H]1CCCN1C(=O)Cc1ccccc1 | -2.7% |
| O=C(c1ccc(F)cc1)C1CCN(CCn2c(=S)[nH]c3ccccc3c2=O)CC1 | -6.86% |
| Cc1ccc(CNc2ncnc3ccc(-c4ccc(CO)o4)cc23)o1 | -2.14% |
| Cc1nnc2n1-c1sc(CCC(=O)N3CCOCC3)cc1C(c1ccccc1Cl)=NC2 | -0.8% |
| CCCCCCCCCCC(C)(C)C(=O)Nc1c(OC)cc(OC)cc1OC | -0.77% |
| Oc1cc2c(cc1O)CN(C(=S)NCCc1ccc(Cl)cc1)CCC2 | 0.95% |
| Cn1cnc2c(F)c(Nc3ccc(Br)cc3F)c(C(=O)NOCCO)cc21 | -1.63% |
| c1ccc2c(-c3cnn4cc(-c5ccc(N6CCNCC6)cc5)cnc34)ccnc2c1 | 10.4% |

Excerpt of the above (series 6):
| Structure (SMILES) | inhibition |
| --- | --- |
| O=C(O)c1cc2cccc([N+](=O)[O-])c2[nH]1 | 0.24% |
| O=C1c2ccccc2C(=O)C1c1ccc(Br)cc1 | -10.1% |
| COc1ccc(-c2ccc3cc(C(=O)O)ccc3c2)cc1[C@]12C[C@H]3C[C@H](C[C@H](C3)C1)C2 | 29.6% |
| CC(C)[C@H](N)C(=O)OCCOCn1cnc2c(=O)nc(N)[nH]c21 | -1.97% |
| N=C(N)c1ccc(N2CCN(C3CCN(CC(=O)O)CC3)CC2)cc1 | -2.58% |
| CCOc1nc2cccc(C(=O)O)c2n1Cc1ccc(-c2ccccc2-c2noc(=O)[nH]2)cc1 | -1.68% |
